Results of several laboratories.
“And” joins repeats or separate records; there may be more than shown. ± marks the error that the study gave.

| SMILES | assay | test system | conditions | scale | measurement | value |
| --- | --- | --- | --- | --- | --- | --- |
| COc1ccc([C@@H](O)c2cc(-c3ncnc4cc(N5CCOCC5)ccc34)c(F)cc2Cl)nn1 |  | mouse, orthotopic M15 xenograft | 125 mg/kg, together with: radiotherapy | reference: radiotherapy alone | median survival extension | 50% |
| O=C(O)/C=C/C(=O)O.Oc1cccc2[nH]cc(CCNCc3ccccc3)c12 |  | C57BL/6J mice | subcutaneous, 3 mg/kg |  | head twitch count | 26.8 ± 1.3 |
| C=CC(=O)Nc1cc(Nc2ncc(Cl)c(Nc3ccccc3C(=O)C(=O)N(C)C)n2)c(OC)cc1N1CCN(C)CC1 | RECIST v1.1 best response | human EGFR T790M NSCLC | oral, 50 mg/day, per-protocol set |  | patients with partial response | 0% |
| N.N.[Cl][Pt][Cl] |  | SAS xenograft, KSN/Slc nude mice | dose not given, day 8, group mean |  | tumour volume | 208 mm3 |
| CCCCC1(CCCC)CN(c2ccccc2)c2cc(SC)c(OCC(=O)N[C@@H](C(=O)NCC(=O)O)c3ccccc3)cc2S(=O)(=O)C1 | item: LDL cholesterol | human, serum | 5 mg once daily, day 1 |  | serum LDL-C | 123 mg/dL |
| c1cncc([C@@H]2CCCN2)c1 | drug discrimination acquisition | drug-naive rat | 5 mg/kg, pretreatment | reference: saline | response rate | decreased |
| CC[C@H](C)[C@@H]1NC(=O)[C@@H]2CCCN2C(=O)[C@H](CC(C)C)NC(=O)[C@H](CC(C)C)NC(=O)CNC(=O)[C@@H](NC(=O)[C@@H](NC(=O)[C@H](CC(=O)O)NC(=O)CNC(=O)[C@@H](NC(=O)[C@H](C)NC(=O)CNC(=O)[C@H](CCCCN)NC(=O)[C@H](CC(C)C)NC(=O)[C@H](CC(C)C)NC(=O)[C@H](CCCCN)NC(=O)CNC(=O)[C@@H](NC(=O)[C@@H](N)CC(C)C)C(C)C)C(C)C)C(C)C)CSSC[C@@H](C(=O)O)NC1=O | RNA-seq, item: Frat1 | mouse, traumatic brain injury model, frontal cortex and hippocampus | dose not given | reference: TBI alone | log2 fold change | -0.851 |
| CN1CCN(S(=O)(=O)c2cc([N+](=O)[O-])ccc2N(CCOS(C)(=O)=O)CCOS(C)(=O)=O)CC1 |  | NSG mice, sample CE PDX | intraperitoneal, 25 mg/kg weekly x3 | reference: vehicle | EFS delay (T-C) | > 58 days |
| COc1cc2nccc(Oc3ccc(NC(=O)c4cc5c(n(-c6ccccc6)c4=O)CCCC5=O)nc3)c2cc1OC |  | MOLM-13 luc/gfp xenograft, mice | diet, 0.004% in feed | reference: treated over control | median survival ratio | 1.33 |
| Cc1nc(Nc2ccc(CC(=O)O)cc2)nc(Nc2ccc(F)c(C(F)(F)F)c2)c1C |  | C57BL/6J mouse, high-fat diet MASH model, serum | intraperitoneal, 0.3 mg/kg daily, 60% fat diet for 12 weeks, dosed final four weeks | reference: untreated | ALT level | decreased |
| Cc1cn(-c2cc(NC(=O)c3ccc(C)c(Nc4nccc(-c5cccnc5)n4)c3)cc(C(F)(F)F)c2)cn1 |  | Homo sapiens | 300 mg, 12 months | direction not given | NPI score | 6.3 ± 6.4 |
| C[C@H]1O[C@@H](O[C@H]2CC[C@@]3(C)[C@@H](CC[C@]4(C)[C@@H]3C=C[C@]35OC[C@@]6(CCC(C)(C)C[C@H]63)[C@@H](O)C[C@]54C)[C@]2(C)CO)[C@H](O)[C@@H](O[C@@H]2O[C@H](CO)[C@@H](O)[C@H](O)[C@H]2O)[C@H]1O |  | mouse, ethanol-fed, AAV8-TBG-Null, plasma | dose not given, high dose |  | AST/ALT ratio | 2.73 and 1.43 and 2.47 and 2.34 and 1.74 and 2.43 |
| C=CC(=O)N[C@H]1C=C(C)c2c(-c3cnc4ccccc4c3)c3c(N)ncnc3n2C1 |  | NCI-H2073 parental xenograft (EGFR wild-type), BALB/c nude mice | 100 mg/kg once daily, 21 days |  | tumour growth inhibition | 66.7% |
| O=C(O)CNC(=O)c1cc2ccccc2n1Cc1ccc(C2CC2)c2ccccc12 |  | mouse, acute hyperuricaemia model | oral, 2 mg/kg | reference: model control | serum uric acid decrease | 63.5% |
| c1ccc2c(c1)Nc1ccccc1S2 |  | CT26 tumour-bearing mice | intraperitoneal, 100 mg/kg equivalents daily, day 7 |  | tumour volume | 813 mm³ |
| Cc1cccc(C)c1NC(=O)C1CCCCN1 (centres unmarked) |  | Sprague-Dawley rat, female | sciatic nerve injection, 60 mM |  | sensory block duration | 74.8 ± 14.4 min |
| CCCCCN1C[C@H](O)[C@@H](O)[C@H](O)[C@@H]1CO |  | Hexb-/- mouse | 300 mg/kg/day | reference: low dose | median survival increase | 7% |
